Experimental data collected from several papers.
Each line is one published result; not all experiments were run side by side. “And” joins repeats or separate records; there may be more than shown.

Cc1ncsc1-c1ccc(C(C)NC(=O)C2CC(O)CN2C(=O)C(NC(=O)CCCCCCCCCCN2CCCC(Nc3ncc(Cl)c(Nc4ccccc4S(=O)(=O)C(C)C)n3)C2)C(C)(C)C)cc1 (stereo not shown)  log2 fold change (22Rv1; RNA-seq, refers to: SIPA1L3 mRNA; concentration not given; relative to: DMSO): -1.04
Nc1ncc(-c2cc(-c3cnn(CC(F)(F)F)c3)ncc2F)nc1C(=O)NC1CNCC(F)C1 (stereo not shown)  remaining binding (EPHB3; KINOMEscan; 1 µM; relative to: DMSO control): 94%
CC(C)c1ccc(N(C)c2ccc3c(c2)OCC[C@H]3CNc2cnccc2C(=O)O)cc1  IC50 (UACC-812; cell growth or viability, ATP luminescence; 7 days): ≥ 10000 nM
C=C(NC(=O)c1csc(-c2nc3c(cc2O)-c2nc(cs2)C(=O)NC(C(C)O)C(=O)NC(=C(C)OC)c2nc(cs2)C(=O)NC2c4nc(cs4)C(=O)NC(COC(=O)c4c5c6c(cccc6n4O)COC(=O)C(OC4CC(C)(O)C(N(C)C)C(C)O4)C2OC5)c2nc-3cs2)n1)C(N)=O (stereo not shown)  ED50 (Staphylococcus; MRSE-37, mouse systemic infection; intravenous; survival): 1.91 mg/kg
OC(COc1ccc2cc(Br)ccc2c1)Cn1ccnc1 (stereo not shown)  translation activity (Trypanosoma cruzi; reporter mRNA translation, inhibitor, refers to: Renilla luciferase mRNA; cell-free extract; concentration not given, test 2; relative to: positive over negative control): 113%
CN1CCCNC(=O)c2cccc(c2)C(=O)NCCCN(C)CCCNc2cccc3c2C(=O)c2cccc(c2C3=O)NCCC1  log2 fold change (SAS; RNA-Seq, refers to: ORC2 mRNA; 1 µM, 6 h; relative to: untreated cells): -0.914
COC1CN([C@H]2CC[C@H]([C@@]3(C)Oc4c(Cl)cc(C(=O)NCc5c(SC)cc(C)[nH]c5=O)c(C)c4O3)CC2)C1  log2 fold change (RNA-seq, refers to: NOS1AP mouse homolog; mouse, HT-1376 xenograft, whole blood; dose not given; relative to: vehicle): 0.182
COc1cc(CN(C)CCc2ccccc2)ccc1OCc1ccccc1  translation activity (Trypanosoma cruzi; reporter mRNA translation, inhibitor, refers to: Renilla luciferase mRNA; cell-free extract; concentration not given, test 1; relative to: positive over negative control): 108% and 110%
CNS(=O)(=O)Nc1nccc(Cc2c(C)c3ccc(Oc4ncccc4F)cc3oc2=O)c1F  IC50 (TF-1; cell viability; 7 days): 9.72 nM
C=CC(=O)Nc1cccc(Cn2ncc3cnc(Nc4cnn(CCOC)c4)nc32)c1  binding (human ABL1(T315I)-nonphosphorylated; KINOMEscan; 100 nM; relative to: control): 16%

Excerpt of the above:
CN1CCCNC(=O)c2cccc(c2)C(=O)NCCCN(C)CCCNc2cccc3c2C(=O)c2cccc(c2C3=O)NCCC1  log2 fold change (SAS; RNA-Seq, refers to: ORC2 mRNA; 1 µM, 6 h; relative to: untreated cells): -0.914
